Measured values from different studies.
Numbered parts are unrelated; each lists some results of a single study. Changes are numbered by the printed parent chain.

Sample 1
Target: PABPC1L2, full length, GST fusion (mouse, UniProt A0ABA7IW68)
Technique: RNAcompete
Form: RNA
Sample: in vitro
Concentration: 20 nM
Setting: 7-mer, probes averaged, single round
Baseline: mean of 7-mers
Reading: higher = stronger binding
Measurement: 7-mer Z-score
Target sequence (chain): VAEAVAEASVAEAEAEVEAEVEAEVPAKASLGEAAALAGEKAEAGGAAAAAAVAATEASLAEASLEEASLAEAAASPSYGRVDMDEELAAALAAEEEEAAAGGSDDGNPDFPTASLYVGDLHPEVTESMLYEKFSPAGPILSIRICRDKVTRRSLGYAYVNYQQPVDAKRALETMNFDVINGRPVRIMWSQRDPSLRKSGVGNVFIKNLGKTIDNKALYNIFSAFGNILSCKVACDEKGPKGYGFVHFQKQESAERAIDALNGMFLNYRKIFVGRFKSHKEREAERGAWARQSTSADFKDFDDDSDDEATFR
UGAGCCC: -0.373
AAGCAUA: 0.155
UGAGUCC: -0.309
GUUUUUA: -0.195
UCAAUUA: -0.0246
UCACGGG: 0.104
CCGGCUU: -0.322
CACCGUC: -0.322
GCAUGCU: -0.0844
CAUCUAA: -0.0337
AGUAACC: -0.115
CGCACCA: -0.0355
UUGUACU: -0.351
CCAGCGC: -0.262
GUCGUUC: -0.489
ACAUACG: -0.0138
ACCCGGA: -0.0301
CCACGUA: -0.0953
UUCAUAU: -0.151
CGUUUCC: -0.44
ACCACAA: 0.171
GGCCUCA: -0.173

Sample 2
Target: ABI1, truncated, D143A, DHFR fusion (Arabidopsis thaliana)
Technique: DHFR PCA, deep sequencing
Sample: yeast
Setting: methotrexate growth selection, single substitutions
Together with: (+)-ABA 0 µM
Baseline: wild-type fitted maximum
Reading: higher = stronger binding
Measurement: relative binding score
Starting sequence: PYL1, truncated, DHFR fusion (Arabidopsis thaliana); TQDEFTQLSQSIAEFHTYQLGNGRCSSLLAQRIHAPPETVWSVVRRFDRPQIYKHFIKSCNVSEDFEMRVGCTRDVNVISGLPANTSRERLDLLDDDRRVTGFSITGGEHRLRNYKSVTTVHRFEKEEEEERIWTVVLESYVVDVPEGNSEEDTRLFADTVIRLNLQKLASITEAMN; partner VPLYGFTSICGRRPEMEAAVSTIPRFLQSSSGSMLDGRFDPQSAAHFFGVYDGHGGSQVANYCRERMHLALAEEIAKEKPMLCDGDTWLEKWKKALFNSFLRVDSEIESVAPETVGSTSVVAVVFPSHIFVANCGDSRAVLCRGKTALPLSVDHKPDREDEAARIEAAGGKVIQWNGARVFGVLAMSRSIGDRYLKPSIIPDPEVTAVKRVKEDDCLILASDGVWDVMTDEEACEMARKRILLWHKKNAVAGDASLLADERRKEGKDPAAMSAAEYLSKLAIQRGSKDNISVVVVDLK
N149P: 11.5%
S59K: 28%
Q7G: 27.6%
R32G: -0.0798%
F15Q: 1.66%
Q51G: 1.17%
L166H: 5.48%
S63W: 13.1%
R163W: 0.065%
L8H: -14.5%
Q10N: 25.4%
V118H: 12.4%
T120I: -7.86%
R90K: 8.37%
V43R: -1.12%

Sample 3
Target: Fragile X messenger ribonucleoprotein 1, C-terminal low-complexity region (Fmr1, Mus musculus, UniProt P35922)
Technique: RNA Bind-n-Seq
Form: RNA
Sample: in vitro
Concentration: 200 nM
Setting: whole 134-nt RNA, ends assumed
Together with: 150 mM KCl
Baseline: input library
Reading: higher = stronger binding
Measurement: log2 enrichment
Shared flanks, not repeated: GGGAGUUCUACAGUCCGACGAUC … UGGAAUUCUCGGGUGUCAAGG
CUGUGCUACACAUCGUAUGUACCGAAUCGGCCCCCCCGGGGCCCCCCCGGGCCCCCCCGGGGAAAGUAUUAUGUUACGCCGUUCGGAUCU: -1.49
UGGUUAGUCAACUACUUUGGUUCCUUAUCAGUAGAAGACUCCCUAGAAUGUCUCAGAGCCAUGCUGUCUGCCAACAUCCGUCAGAAUCUG: -0.144
GCAGGAAGUAAAAACAAAUGGAAAUGCUUCGGAUAGUGGCAGGGGUGGGGGUUGCUAAGGAAAGGGUGGGAUGGGAGCGGGUAAAGAGUU: 0.0468
GUCCUGUGCUACACAUCGUAUGUACCGAAUCGGGGAAAGGGGUUUUUUUGGGGAGGGGAAAGUAUUAUGUUACGCCGUUCGGAUCUGCAC: 0.631
AGUCCUGUGCUACACAUCGUAUGUACCGAAUCGGGGCCCCCGGCCCCCGGCCCCCGGAAAGUAUUAUGUUACGCCGUUCGGAUCUGCACU: -0.665
CCUCAAGUCCUGUGCUACACAUCGUAUGUACCGAAUCGGUGGGGUGGGGUGGGAAAGUAUUAUGUUACGCCGUUCGGAUCUGCACUUCCA: 1.3
GGGGAGGUGGAUUUUGUUUAUUUUUUUAGCUCAUUUCCAGGGGUGGGAAUUUUUUUUUAAUAUGUGUCAUGAAUAAAGUUGUUUUUGAAA: 0.502
AGUCCUGUGCUACACAUCGUAUGUACCGAAUCGGGUUUUUGGGUUUUUGGUUUUUGGAAAGUAUUAUGUUACGCCGUUCGGAUCUGCACU: -0.56
CCUCAAGUCCUGUGCUACACAUCGUAUGUACCGAAUCGGAAGGAAGGGAAGGGAAAGUAUUAUGUUACGCCGUUCGGAUCUGCACUUCCA: -0.186
GUCCUGUGCUACACAUCGUAUGUACCGAAUCGGGGUUUGGGGAAAAAGGGGAAAGGGGAAAGUAUUAUGUUACGCCGUUCGGAUCUGCAC: 0.311
ACCAUGCAGGUGGGCAUCUUUGGGAAGUGGGGCAAGGGGGGGAUAGGGAGGGGGGUAACACUUUGGGAACAGGUGGUCCCAGGUCGUUCC: 0.615
ACCAUGCAGGUGGGUAUCUUUGGGAAGUGGGGCAAGGGGGGGAUAGGGAGGGGGGUAACACUUUGGGAACAGGUGGUCCCAGGUCGUUUC: 0.635
GUCCUGUGCUACACAUCGUAUGUACCGAAUCAAACCCCCCCAAACCCAAACCCCCAAAAAAGUAUUAUGUUACGCCGUUCGGAUCUGCAC: 0.147
UGGGGACAAGCUGACAGCAGCCAUGGCGAGCGGCAGUGGAGACAGCGUCACCCGUCGGAGCGUGGCAUCACAGUUUUUCACUCAAGAGGA: -1.42

Sample 4
Target: RNA binding protein fox-1 homolog 2, RRM domain, GST-SBP tag (RBFOX2, Homo sapiens, UniProt O43251-10, residues 100-194)
Technique: RNA Bind-n-Seq
Form: RNA
Sample: in vitro
Concentration: 365 nM
Setting: natural RNA segment, single round, ends assumed
Baseline: no-protein control
Reading: higher = stronger binding
Measurement: RBNS enrichment (R)
Shared flanks, not repeated: GGGAGUUCUACAGUCCGACGAUC … UGGAAUUCUCGGGUGCCAA
Target sequence (chain): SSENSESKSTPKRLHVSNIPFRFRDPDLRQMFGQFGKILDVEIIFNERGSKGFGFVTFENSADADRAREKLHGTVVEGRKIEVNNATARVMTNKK
AGAAUAUUUUUUUUUUGAGCAUGGCUAGUGGAUUUAAAACAACACAUACCUGUCACUGCUGGAGUCAAACUUAUAAAAAGCCUUAAGUGGAAAGUGUUCCAGACGGAGAC: 0.484
AAACCCACCAAACCAACAGGAUAAUUGACAAAUAAACGCCAUAGGCUAGGCUGAACUGUAUGUUACUGUUUUCAUGCUUAUACAUAUAUUUUCAAUCACAUACAAGUACA: 0.488
GUUAAUGGGAGGAAGGAAAGAGACCCUGCCUAGGGAAGGUUGGCUUACAGCCACCCUUGCAAGAAGUGCUGGUAUAGGGUCAGCUGGGGAGAAGAGCCCUGGUCAGUGGC: 0.539
GUCUACGAUUUGGUGAAAACAUCUAGAUGUCAUCACAAACUUUGCCAAAUUUGUGGAACUAUUAAAUGUAUAAUUUGUAGACAUAAAGACUUGAUUGCUUUCCAGUUUAA: 0.392
GCCACAAAAUAAAACACACACUGAUCAAAGCCGGCUAUACUGGCAUUGCAUAUCUUUGCUAUUCAACAAUGGUGUCCUUCACCACAGUUUCUAAUCUAGAGCACGGAGAA: 0.396
GGAAAUAGCAUACUUUUUCAAAAAUAAAUAAAUAAAAAUGGCAUCUCUGAAAAUCCCAUUCUUUGAUUUUCCUGGUAUUGUAAUUGGUUAUUGACAAUUGUCAUCAUGAA: 1.15
GAAACUGAGGGGCAAGAUAACCCCCACAUGACACGUGACAUCACUUUGGGGACAGCCCAGUUGCCAUUGUGGGACAGAACCCCAGUCCUGCGUUUCAGGGACAUGGGGAG: 0.481
CUGUGGCUACUUCGUGGUCAGAGUGAGCCCCUUGCAGAAUCCCCACUCCAGCAAACAAAGCAACGGCCCUGCUGGGAUUGUCGAAUCUCCCUUGAGGGUUUCAGGGACCU: 0.187
GAAGGAACUUUAAAAAUCAUCCGGUCCAAUCUCUUUCCUCUUUCUGCCACCUCCCAAGGCAGAAAUCCCCUCUUCAGCUUCUUUUGUAGGUGGGAAUCCAGCCUCUGUUA: 0.648
CAUUGUGAAGAAAUGAAGAACCGAUAGUCUAGUUUAAGAAAGUGGCUCUCAGUAUUGUGACAGUACAUUUUUACAAGGUUGUUUUUCUACCACCGUAUUUUUAAAGUAUU: 0.591
AUGAGAAGCAACGUUAGAAGGUUUUUGUCCUUGCUACCCUUCCUGGGGCCUGUGAACUGCAGCAGCAUGUCACAUAAACUCCUGAGCAGGGGAGAUGGGAGGGCGAUGAG: 0.571
UUCCCCCGACUUUCCUCUGGGAUAUAAAAAAGGGGGUAAGGGGGCAAAGAGAGCCCUCUGGGCCUCUCCUCCCAUACACACUACACUGCCCCUUCUCCCCCCAUCAAAAC: 0.63

Further values, each from its own experiment
P1: CDAN1 docking peptide (human); RGARSQLFPPTEA; partner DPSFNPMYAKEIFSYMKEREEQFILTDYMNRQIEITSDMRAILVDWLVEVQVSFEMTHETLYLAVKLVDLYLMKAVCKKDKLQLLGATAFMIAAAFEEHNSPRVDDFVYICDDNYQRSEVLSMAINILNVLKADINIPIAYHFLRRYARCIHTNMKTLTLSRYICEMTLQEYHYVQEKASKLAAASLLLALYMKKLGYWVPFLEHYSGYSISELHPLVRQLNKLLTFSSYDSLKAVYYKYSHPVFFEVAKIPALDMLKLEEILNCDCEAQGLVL
P1 L7A — normalised enrichment score (CCNB3, cyclin fold, Cln2 fusion (human); yeast growth competition, sequencing; yeast; weak parent motif; baseline: not given, higher = stronger binding): -0.0522
PhoQ, residues 284 288 289 292 302 303 AGCYAI — fold induction (PhoP, residues 12 14 15 18 19 NHFRA (Escherichia coli, UniProt P23836); Sort-seq, refers to: YFP reporter; E. coli; PhoQ-PhoP variant library, together with: 10 µM Mg2+; baseline: high Mg2+ state, higher = stronger signaling): 3.06
STTRRRLFVENDS — score minus score, wild type (human cyclin B1; cyclin docking binding, deep mutational scanning; peptide, yeast cyclin B1-Cln2 system; direction not given): 0

Some of these lines once more (sample 3):
GUCCUGUGCUACACAUCGUAUGUACCGAAUCGGGGUUUGGGGAAAAAGGGGAAAGGGGAAAGUAUUAUGUUACGCCGUUCGGAUCUGCAC: 0.311
AGUCCUGUGCUACACAUCGUAUGUACCGAAUCGGGUUUUUGGGUUUUUGGUUUUUGGAAAGUAUUAUGUUACGCCGUUCGGAUCUGCACU: -0.56
GGGGAGGUGGAUUUUGUUUAUUUUUUUAGCUCAUUUCCAGGGGUGGGAAUUUUUUUUUAAUAUGUGUCAUGAAUAAAGUUGUUUUUGAAA: 0.502
CUGUGCUACACAUCGUAUGUACCGAAUCGGCCCCCCCGGGGCCCCCCCGGGCCCCCCCGGGGAAAGUAUUAUGUUACGCCGUUCGGAUCU: -1.49
UGGGGACAAGCUGACAGCAGCCAUGGCGAGCGGCAGUGGAGACAGCGUCACCCGUCGGAGCGUGGCAUCACAGUUUUUCACUCAAGAGGA: -1.42
